{"data": "Experimental data collected from several papers"}
{"Compound": "COc1cc(Nc2ncc(F)c(Nc3ccc4c(n3)NC(=O)C(C)(C)O4)n2)cc(OC)c1OC", "target": "Trypsin", "measurement": "IC50", "result": "> 10000 nM"}
{"Compound": "O=C(Nc1cccnn1)N1CCN([C@@H]2CCOc3cc(C(F)(F)F)ccc32)CC1", "target": "SKCa potassium channel", "test": "binding", "setting": "20 µM", "measurement": "inhibition", "result": "-1%"}
{"Compound": "Oc1cccc(N2[C@@H]3CC[C@H]2CN(CCCc2ccccc2)C3)c1", "target": "mu opioid receptor", "test": "β-arrestin-2 recruitment, agonist, TRUPATH BRET", "scale": "relative to: DAMGO", "measurement": "Emax", "result": "8.68%"}
{"Compound": "c1ccc(C(NCCNC(c2ccccc2)c2ccccc2)c2ccccc2)cc1", "target": "SKCa potassium channel, rat", "test": "binding", "setting": "10 µM, Eurofins selectivity panel", "measurement": "inhibition", "result": "20%"}
{"Compound": "N[C@@H]1C[C@H]1c1ccccc1 (racemic)", "target": "human H+/organic cation antiporter", "test system": "hCMEC/D3", "setting": "250 µM, 2 min, added: 1 µM DPH preloading 30 min", "scale": "relative to: control", "measurement": "trans-stimulation ratio", "result": 0.3}
{"Compound": "CCOC(=O)c1ccc(OC(=O)CCCCCN=C(N)N)cc1", "target": "trypsin", "test": "enzyme activity, inhibitor", "measurement": "IC50", "result": "8.88 nM"}
{"Compound": "CN(C)C(=O)c1cc2cnc(Nc3ccc(C(=O)NCCCCCCOc4cccc5c4C(=O)N(C4CCC(=O)NC4=O)C5=O)cc3)nc2n1C1CCCC1 (centres unmarked)", "target": "N-Myc (human)", "test": "degrader, immunoblotting, refers to: N-Myc", "test system": "SK-N-BE(2)", "setting": "4 h", "measurement": "DC50", "result": "179 nM"}
{"Compound": "CN1CCN(c2ccc(Nc3nccc(-c4cccc([N+](=O)[O-])c4)n3)cc2C(F)(F)F)CC1", "target": "human FLT3 ITD", "setting": "10000 nM", "scale": "relative to: control", "measurement": "remaining binding", "result": "0.55%"}
{"Compound": "NCCc1ccccc1", "target": "SAR11_0271 Candidatus Pelagibacter sp.", "test": "differential scanning fluorimetry", "setting": "concentration not given", "scale": "higher = stronger binding", "measurement": "ΔTm", "result": "2.28 °C"}
{"Compound": "C/C=C1/C(=O)C[C@H]2[C@@H]3CCC4=CC(=O)CC[C@]4(C)[C@H]3CC[C@]12C", "target": "FXR", "test system": "HEK293 cells", "setting": "concentration not given", "measurement": "activity", "result": "inactive"}
{"Compound": "C[C@H](C(=O)N[C@H]1COc2ccccc2[C@@H]1S(C)(=O)=O)c1ccc(F)cc1", "target": "sodium channel site 2, rat", "test": "binding", "setting": "10 µM, Eurofins selectivity panel", "measurement": "inhibition", "result": "-22%"}
{"Compound": "Nc1ncc(-c2nc(N3CCOCC3)nc(N3CCOCC3)n2)c(C(F)F)n1", "target": "FLT3 ITD", "test": "KINOMEscan", "setting": "10 µM", "scale": "relative to: control", "measurement": "remaining binding", "result": "77%"}
{"Compound": "NCC(O)c1ccc(O)cc1 (racemic)", "target": "SAR11_0271 Candidatus Pelagibacter sp.", "test": "differential scanning fluorimetry", "setting": "concentration not given", "scale": "higher = stronger binding", "measurement": "ΔTm", "result": "3.68 °C"}
{"Compound": "CC(C)[C@@H](CN1CC[C@@](C)(c2cccc(O)c2)[C@@H](C)C1)NC(=O)[C@@]1(C)Cc2ccc(O)cc2CN1", "target": "kappa opioid receptor", "test": "antagonist", "test system": "Long-Evans rat", "setting": "subcutaneous, 30 mg/kg, 1 week after dosing, added: U-50488", "scale": "relative to: U-50488 alone", "measurement": "reversal of U-50488 diuresis", "result": "-24%"}
{"Compound": "O=C1NC(=O)[C@](CNC(=O)c2cnn(-c3ccccc3)n2)(C2CC2)N1", "target": "trypsin", "setting": "concentration not given", "measurement": "activity", "result": "inactive"}
{"Compound": "CC(C)CC(=O)OC[C@H]1O[C@@](C#N)(c2ccc3c(N)ncnn23)[C@H](O)[C@@H]1O", "target": "sodium channel site 2 rat", "test": "radioligand binding", "setting": "20 µM", "measurement": "inhibition", "result": "7%"}
{"Compound": "COc1nc(NC(C)C)nc(NC(C)C)n1", "target": "FXR", "test": "Bsep mRNA induction, agonist, qPCR, refers to: Bsep", "test system": "Oryzias latipes, larvae", "setting": "10 µM, 48 h", "scale": "relative to: maximal induction by reference agonist", "measurement": "Emax", "result": "33.6%"}
{"Compound": "C[N+](C)(C)CCOP(=O)(O)O", "target": "SAR11_1346", "test": "differential scanning fluorimetry", "test system": "Candidatus Pelagibacter sp.", "setting": "in-house screen", "measurement": "thermal shift", "result": "3.57 °C"}
{"Compound": "O=C1C[C@@H](c2ccc(O)cc2)Oc2cc(O)cc(O)c21", "target": "butyrylcholinesterase", "test system": "rat liver microsomes", "setting": "concentration not given, added: NADPH", "measurement": "BChE activity", "result": "no effect"}
{"Compound": "CC(C)[C@@H](CN1CC[C@@](C)(c2cccc(O)c2)[C@@H](C)C1)NC(=O)[C@@H]1Cc2ccc(O)cc2CN1C", "target": "kappa opioid receptor", "test": "antagonist", "test system": "Long-Evans rat", "setting": "subcutaneous, 30 mg/kg, 1 week after dosing, added: U-50488", "scale": "relative to: U-50488 alone", "measurement": "reversal of U-50488 diuresis", "result": "-25%"}
{"note": "Excerpt of the above:"}
{"Compound": "COc1nc(NC(C)C)nc(NC(C)C)n1", "target": "FXR", "test": "Bsep mRNA induction, agonist, qPCR, refers to: Bsep", "test system": "Oryzias latipes, larvae", "setting": "10 µM, 48 h", "scale": "relative to: maximal induction by reference agonist", "measurement": "Emax", "result": "33.6%"}
{"Compound": "C[N+](C)(C)CCOP(=O)(O)O", "target": "SAR11_1346", "test": "differential scanning fluorimetry", "test system": "Candidatus Pelagibacter sp.", "setting": "in-house screen", "measurement": "thermal shift", "result": "3.57 °C"}
{"Compound": "O=C1C[C@@H](c2ccc(O)cc2)Oc2cc(O)cc(O)c21", "target": "butyrylcholinesterase", "test system": "rat liver microsomes", "setting": "concentration not given, added: NADPH", "measurement": "BChE activity", "result": "no effect"}
